Measured values gathered from unrelated publications.
Numbers after ± are the reported error.

Structure (SMILES) | tested on | test | system | conditions | endpoint | result
O=C1NC2(CC2)COc2ncc(F)cc2[C@H]2COCCN2c2ccn3ncc1c3n2 | – | – | Sprague-Dawley rat, male, liver | oral, 10 mg/kg/day, 4 weeks dosing, end of recovery | organ-to-body weight ratio | 2.79 ± 0.128%
CC[C@H](C)[C@H](NC(=O)[C@@H](CCCNC(=N)N)NC(=O)[C@H](CCCNC(=N)N)NC(=O)[C@H](CC(N)=O)NC(=O)[C@H](Cc1c[nH]c2ccccc12)NC(=O)[C@H](CCCNC(=N)N)NC(=O)[C@@H]1CCCN1C(=O)[C@H](CCCNC(=N)N)NC(=O)[C@@H]1CCCN1C(=O)[C@H](CC(C)C)NC(=O)[C@H](Cc1ccc(O)cc1)NC(=O)[C@@H]1CCCN1C(=O)[C@@H]1CCCN1C(=O)[C@H](CCCCN)NC(=O)[C@H](CC(=O)O)NC(=O)[C@@H](N)C(C)C)C(=O)N[C@@H](Cc1ccc(O)cc1)C(=O)N[C@@H](CC(N)=O)C(=O)N[C@H](CCCNC(=N)N)C(N)=O | Escherichia coli | broth microdilution | BW25113 | 18 h, 37 °C, 25% MHB2 | MIC | 8 µg/mL
CC[C@H](C)[C@H](NC(=O)[C@H](CC(C)C)NC(=O)[C@H](CCCNC(=N)N)NC(=O)CNC(=O)CNC(=O)[C@H](CCCCN)NC(=O)[C@H](CCCNC(=N)N)NC(=O)[C@H](CC(C)C)NC(=O)[C@H](CC(C)C)NC(=O)[C@H](CCCNC(=N)N)NC(=O)[C@@H](NC(=O)[C@H](CC(C)C)NC(=O)[C@@H](N)CO)[C@@H](C)O)C(=O)NCC(=O)N[C@@H](Cc1c[nH]c2ccccc12)C(=O)N[C@@H](CCCNC(=N)N)C(=O)N[C@@H](Cc1c[nH]c2ccccc12)C(=O)N[C@@H](CCC(=O)O)C(=O)N[C@@H](CCCCN)C(=O)N[C@H](C(=O)N[C@@H](CCCNC(=N)N)C(=O)N[C@@H](CC(N)=O)C(=O)N[C@@H](Cc1c[nH]c2ccccc12)C(=O)N[C@H](C(=O)N[C@@H](CCCNC(=N)N)C(=O)N[C@@H](CCCNC(=N)N)C(=O)N[C@H](C(=O)N[C@H](C(=O)N[C@@H](CCC(=O)O)C(=O)N[C@@H](CCCCN)C(=O)N[C@@H](CCCNC(=N)N)C(=O)N[C@@H](CCCCN)C(=O)N1CCC[C@H]1C(=O)N[C@@H](CC(N)=O)C(=O)N[C@@H](CCCCN)C(=O)O)[C@@H](C)CC)[C@@H](C)CC)[C@@H](C)CC)[C@@H](C)O | Escherichia coli | broth microdilution | K88 | – | MIC | 0.94 log10 µg/mL
CC1(C)C(NC(=O)C(=NOCC(=O)N2CC3CCCC3C2C(=O)O)c2csc(N)n2)C(=O)N1OS(=O)(=O)O (centres unmarked) | Escherichia coli | agar dilution | 08-85, mcr-1 | – | MIC | 8 µg/mL
CC(C)C[C@@H]1NC(=O)[C@H](CCCCN)NC(=O)CNC(=O)[C@H]2CCCN2C(=O)[C@H](CCCCN)NC(=O)[C@H](CC(C)C)NC(=O)[C@H](CCCCN)NC(=O)C2CCC=CCCC(NC(=O)[C@H](CCCCN)NC1=O)C(=O)N[C@@H](CCCCN)C(=O)NC(C(N)=O)CCC=CCCC(N)C(=O)N[C@@H](CCCCN)C(=O)N2 (some centres unmarked) | Escherichia coli | broth microdilution | ATCC 25922, Mueller-Hinton broth | 18 h, 37 °C | MIC | 32 µM
COc1c(NC(=O)c2ccc(NC(=O)c3ccc(NC(=O)[C@H](CC(N)=O)NC(=O)c4ccc(NC(=O)[C@@H](N)Cc5ccccc5)cc4)cc3)c(OC)c2O)ccc(C(=O)O)c1O | Escherichia coli | – | pentapeptide repeat protein clone | 16 h, 37 °C | MIC | > 64 µg/mL
CC[C@H](C)[C@H](NC(=O)CNC(=O)[C@H](CCCCN)NC(=O)[C@H](CCCCN)NC(=O)[C@H](CCC(N)=O)NC(=O)[C@H](CC(C)C)NC(=O)[C@H](CCCCN)NC(=O)[C@H](CC(C)C)NC(=O)[C@H](CC(C)C)NC(=O)[C@H](CCCCN)NC(=O)[C@H](CCCCN)NC(=O)[C@H](CC(C)C)NC(=O)[C@H](CC(C)C)NC(=O)[C@H](CCCCN)NC(=O)[C@H](CCSC)NC(=O)[C@H](C)NC(=O)[C@H](CCCCN)NC(=O)[C@@H]1CCCN1C(=O)[C@H](C)N)C(=O)O | Escherichia coli | – | BL21(DE3), Mueller-Hinton broth | 20 h | MIC | 1.96 µM
CC[C@H](C)[C@H](NC(=O)[C@@H](CCCNC(=N)N)NC(=O)[C@H](CCCNC(=N)N)NC(=O)[C@H](Cc1ccc(O)cc1)NC(=O)[C@H](Cc1c[nH]c2ccccc12)NC(=O)[C@H](CCCNC(=N)N)NC(=O)[C@@H]1CCCN1C(=O)[C@H](CCCNC(=N)N)NC(=O)[C@@H]1CCCN1C(=O)[C@H](CC(C)C)NC(=O)[C@H](Cc1ccc(O)cc1)NC(=O)[C@@H]1CCCN1C(=O)[C@@H]1CCCN1C(=O)[C@H](CCCCN)NC(=O)[C@H](CC(=O)O)NC(=O)[C@@H](N)C(C)C)C(=O)N[C@@H](Cc1ccc(O)cc1)C(=O)N[C@@H](CC(N)=O)C(=O)N[C@H](CCCNC(=N)N)C(N)=O | Escherichia coli | broth microdilution | MC4100 | 18 h, 37 °C, 25% MHB2 | MIC | 16 µg/mL
Cc1ccc2nc(C)c(C(=O)C(=O)NCc3ccc(N(C)C)cc3)n2c1 | Escherichia coli | microbial growth, broth dilution | – | – | MIC | > 128 µM
CC[C@H](C)[C@H](NC(=O)[C@H](Cc1c[nH]c2ccccc12)NC(=O)c1ccccc1)C(=O)N[C@@H](CCCNC(=N)N)C(=O)N[C@@H](Cc1ccc(O)cc1)C(=O)N[C@@H](CCCCN)C(=O)N[C@@H](Cc1c[nH]c2ccccc12)C(=O)N1CCC[C@@H]1C(=O)N[C@@H](CCCNC(=N)N)C(=O)N[C@@H](CCCCN)C(=O)N[C@H](C(=O)N[C@H](C(=O)N[C@@H](CCCNC(=N)N)C(=O)N[C@@H](Cc1ccc(O)cc1)C(=O)N[C@@H](Cc1c[nH]c2ccccc12)C(=O)N[C@H](C(=O)NCC(=O)N1CCC[C@H]1C(N)=O)[C@@H](C)O)C(C)C)C(C)C | Escherichia coli | – | DH5α | 16 h, 37 °C | MIC | > 100 µM
CC[C@H](C)[C@H](NC(=O)[C@H](CCCNC(=N)N)NC(=O)[C@H](CCCCN)NC(=O)[C@H](CC(C)C)NC(=O)[C@H](CC(C)C)NC(=O)CNC(=O)CCCCCNC(=O)CCCC[C@@H]1SC[C@@H]2NC(=O)N[C@@H]21)C(=O)N[C@@H](CCCCN)C(=O)N[C@H](C(=O)N[C@@H](CC(C)C)C(=O)N[C@@H](CC(C)C)C(=O)O)[C@@H](C)O | Escherichia coli | broth microdilution | M/14072, Mueller-Hinton broth | – | MIC | > 160 µM
CCCCCCCC(=O)N[C@@H](CCN)C(=O)N[C@H](C(=O)N[C@@H](CCN)C(=O)N[C@H]1CCNC(=O)[C@H]([C@@H](C)O)NC(=O)[C@H](CCN)NC(=O)[C@H](CCN)NC(=O)[C@H](Cc2ccc(C(F)(F)F)cc2)NC(=O)[C@@H](CC(C)C)NC(=O)[C@H](CCN)NC1=O)[C@@H](C)O | Escherichia coli | broth microdilution | ATCC 25922, colistin-susceptible | – | MIC | 0.25 to 0.5 µg/mL
CC(C)C[C@H](NC(=O)[C@@H](NC(=O)[C@H](CCCCN)NC(=O)[C@H](CCCCN)NC(=O)[C@H](CC(C)C)NC(=O)[C@H](Cc1c[nH]c2ccccc12)NC(=O)[C@H](CCCCN)NC(=O)[C@H](Cc1c[nH]c2ccccc12)NC(=O)[C@H](CC(C)C)NC(=O)[C@H](CCCCN)NC(=O)[C@H](CCCCN)NC(=O)[C@@H](N)C(C)C)C(C)C)C(N)=O | Escherichia coli | – | – | 24 h, 37 °C, Mueller-Hinton broth, KCl 4.5 mM | MIC | 32 µM
CC[C@H](C)[C@H](NC(=O)[C@@H](CCCNC(=N)N)NC(=O)[C@H](CCCNC(=N)N)NC(=O)[C@@H]1CCCN1C(=O)[C@@H]1CCCN1C(=O)[C@H](CCCNC(=N)N)NC(=O)[C@@H]1CCCN1C(=O)[C@H](CCCNC(=N)N)NC(=O)[C@@H]1CCCN1C(=O)[C@@H](NC(=O)[C@H](Cc1ccc(O)cc1)NC(=O)[C@@H]1CCCN1C(=O)[C@@H]1CCCN1C(=O)[C@H](CCCCN)NC(=O)[C@H](CC(=O)O)NC(=O)[C@@H](N)C(C)C)C(C)(C)C)C(=O)N[C@@H](Cc1ccc(O)cc1)C(=O)N[C@@H](CC(N)=O)C(=O)N[C@H](CCCNC(=N)N)C(N)=O | Escherichia coli | broth microdilution | MC4100 | 18 h, 37 °C, 25% MHB2 | MIC | 16 µg/mL
C#CCNC(=O)[C@H](CCCNC(=N)N)NC(=O)[C@@H]1CCCN1C(=O)[C@@H]1CCCN1C(=O)[C@H](CCCNC(=N)N)NC(=O)[C@@H]1CCCN1C(=O)[C@H](CCCNC(=N)N)NC(=O)[C@@H]1CCCN1C(=O)[C@H](CC(C)C)NC(=O)[C@H](Cc1ccc(O)cc1)NC(=O)[C@@H]1CCCN1C(=O)[C@@H]1CCCN1C(=O)[C@H](CCCCN)NC(=O)[C@H](CC(=O)O)NC(=O)[C@@H](N)C(C)C | Escherichia coli | broth microdilution | MRE600 | 16 h, 37 °C, 25% Mueller-Hinton broth | MIC | 32 µg/mL
CC[C@H](C)[C@H](NC(=O)[C@@H](CCCNC(=N)N)NC(=O)[C@H](CCCNC(=N)N)NC(=O)[C@@H]1CCCN1C(=O)[C@@H]1CCCN1C(=O)[C@H](CCCNC(=N)N)NC(=O)[C@@H]1CCCN1C(=O)[C@H](CCCNC(=N)N)NC(=O)[C@@H]1CCCN1C(=O)[C@H](CC(C)C)NC(=O)[C@H](Cc1ccc(O)cc1)NC(=O)[C@@H]1CCCN1C(=O)[C@H](Cc1ccc(O)cc1)NC(=O)[C@H](CCCCN)NC(=O)[C@H](CC(=O)O)NC(=O)[C@@H](N)C(C)C)C(=O)N[C@@H](Cc1ccc(O)cc1)C(=O)N[C@@H](CC(N)=O)C(=O)N[C@H](CCCNC(=N)N)C(N)=O | Escherichia coli | broth microdilution | ATCC 25922 | 18 h, 37 °C, 25% MHB2 | MIC | 16 µg/mL
CC(C)C[C@H](NC(=O)[C@H](CC(C)C)NC(=O)[C@H](CCCCN)NC(=O)[C@H](Cc1ccccc1)NC(=O)[C@@H](NC(=O)[C@H](CCCNC(=N)N)NC(=O)[C@H](CCCCN)NC(=O)[C@H](Cc1c[nH]c2ccccc12)NC(=O)[C@@H](NC(=O)[C@@H](N)CCCNC(=N)N)C(C)C)C(C)C)C(=O)N[C@@H](CCCCN)C(=O)N[C@@H](CCCNC(=N)N)C(=O)N[C@@H](Cc1ccc(O)cc1)C(=O)N[C@@H](Cc1c[nH]c2ccccc12)C(=O)N[C@@H](CCCNC(=N)N)C(N)=O | Escherichia coli | broth microdilution | 25922 | – | MIC | 1.25 µg/mL
CC[C@H](C)[C@H](NC(=O)[C@@H](CCCNC(=N)N)NC(=O)[C@H](CCCNC(=N)N)NC(=O)[C@@H]1CCCN1C(=O)[C@@H]1CCCN1C(=O)[C@H](CCCNC(=N)N)NC(=O)[C@H](Cc1c[nH]c2ccccc12)NC(=O)[C@H](CCCNC(=N)N)NC(=O)[C@@H]1CCCN1C(=O)[C@H](CC(C)C)NC(=O)[C@H](Cc1ccc(O)cc1)NC(=O)[C@@H]1CCCN1C(=O)[C@@H]1CCCN1C(=O)[C@H](CCCCN)NC(=O)[C@H](CC(=O)O)NC(=O)[C@@H](N)C(C)C)C(=O)N[C@@H](Cc1ccc(O)cc1)C(=O)N[C@@H](CC(N)=O)C(=O)N[C@H](CCCNC(=N)N)C(N)=O | Escherichia coli | broth microdilution | BW25113 | 18 h, 37 °C, 25% MHB2 | MIC | 8 µg/mL
CC(C)C[C@@H](NC(=O)[C@H](NC(=O)[C@@H](CCCCN)NC(=O)[C@@H](CCCCN)NC(=O)[C@@H](CC(C)C)NC(=O)[C@@H](Cc1c[nH]c2ccccc12)NC(=O)[C@@H](CCCCN)NC(=O)[C@@H](CC(C)C)NC(=O)[C@@H](CC(C)C)NC(=O)[C@@H](CCCCN)NC(=O)[C@@H](CCCCN)NC(=O)[C@H](N)C(C)C)C(C)C)C(N)=O | Escherichia coli | – | – | 24 h, 37 °C, Mueller-Hinton broth, NH4Cl 6 µM | MIC | 8 µM
OB(O)c1cnn(-c2cccc(Cl)c2)c1 | Escherichia coli | bacterial growth | CTX-M-14 ESBL clinical isolate | without cefotaxime | MIC | > 2050 µg/mL

A few entries again:
Structure (SMILES) | tested on | test | system | conditions | endpoint | result
CC[C@H](C)[C@H](NC(=O)[C@H](Cc1c[nH]c2ccccc12)NC(=O)c1ccccc1)C(=O)N[C@@H](CCCNC(=N)N)C(=O)N[C@@H](Cc1ccc(O)cc1)C(=O)N[C@@H](CCCCN)C(=O)N[C@@H](Cc1c[nH]c2ccccc12)C(=O)N1CCC[C@@H]1C(=O)N[C@@H](CCCNC(=N)N)C(=O)N[C@@H](CCCCN)C(=O)N[C@H](C(=O)N[C@H](C(=O)N[C@@H](CCCNC(=N)N)C(=O)N[C@@H](Cc1ccc(O)cc1)C(=O)N[C@@H](Cc1c[nH]c2ccccc12)C(=O)N[C@H](C(=O)NCC(=O)N1CCC[C@H]1C(N)=O)[C@@H](C)O)C(C)C)C(C)C | Escherichia coli | – | DH5α | 16 h, 37 °C | MIC | > 100 µM
COc1c(NC(=O)c2ccc(NC(=O)c3ccc(NC(=O)[C@H](CC(N)=O)NC(=O)c4ccc(NC(=O)[C@@H](N)Cc5ccccc5)cc4)cc3)c(OC)c2O)ccc(C(=O)O)c1O | Escherichia coli | – | pentapeptide repeat protein clone | 16 h, 37 °C | MIC | > 64 µg/mL
